Assay results pooled from the literature.
Protocols differ between the studies behind these lines. Values joined by “and” are separate records of one study, mostly repeats; a detail may differ. ± marks the error that the study gave.

Structure (SMILES) = C=CCNc1c(O)cc2c(O)c1C[C@@H](C)C[C@H](OC)[C@H](O)[C@@H](C)/C=C(\C)[C@H](OC(N)=O)[C@@H](OC)/C=C\C=C(/C)C(=O)N2; system = unresectable or metastatic STS, GIST, other; conditions = intravenous, 400 mg/m^2; endpoint = patients with fatigue TEAE; value = 72%
Structure (SMILES) = CC(=O)c1c(C)c2cnc(Nc3ccc(C4CCN(CCS(C)(=O)=O)CC4)cn3)nc2n(C2CCCC2)c1=O; system = human, plasma; conditions = oral, 50 mg, day 1 single dose; endpoint = Vd; value = 2750 L
Structure (SMILES) = C[C@H]1C[C@@H](N2C(=N)N[C@](C)(c3cccc(NC(=O)c4cccc(C#N)c4)c3Cl)CC2=O)CCO1; system = rat; conditions = 250 mg/kg, every other day; endpoint = monocytes count change; value = 45%
Structure (SMILES) = C[C@]1(CO)Cc2ncn(-c3ccc(C#N)c(Cl)c3)c2C(=O)O1; system = human; conditions = 20 mg multiple doses, fasted; endpoint = subjects with drug-related urine abnormality; value = 0%
Structure (SMILES) = Clc1ccc(-c2ccccc2)cc1; system = Sprague-Dawley rats, female, serum; conditions = inhalation, 23 µg/rat, 0 h after exposure; endpoint = alanine aminotransferase; value = 40 ± 5 U/L
Structure (SMILES) = O=S(=O)(Nc1ccccc1)c1ccc(NC(=S)Nc2ccccc2)cc1; system = mouse, male, lung; conditions = oral, 20 mg/kg daily, 14 days; scale = baseline: body weight; endpoint = relative organ weight; value = 0.87%
Structure (SMILES) = COc1ccc(CCC2CCCC(CCc3ccc(OC)cc3)N2C[C@@H](O)CO)cc1.Cl (stereo in doubt); system = rabbit Purkinje fibres; conditions = 0.1 µM, cycle length 0.5 s; scale = baseline: baseline; endpoint = resting membrane potential change; value = 0.1 ± 1.4 mV
Structure (SMILES) = CN1CC[C@@H](c2c(O)cc(O)c3c(=O)cc(-c4ccc(C(F)(F)F)cc4Cl)oc23)[C@@H]1CO; assay = refers to: urinary incontinence; system = B-cell malignancies; conditions = oral, 200 mg, grade 3 to 4, intermittent dosing; endpoint = patients with adverse event; value = 0%
Structure (SMILES) = OC(c1ccc(F)cc1)C(F)(F)CCN1CCC(O)(c2ccc(Cl)cc2)CC1 (racemic); system = female CD-1 mice, brain; conditions = intraperitoneal, 10 mg/kg; endpoint = brain detection period; value = 0.083 to 2 h
Structure (SMILES) = CN(C)C1(CNC(=O)c2ccc3c(c2)CCN3C(=O)c2ccccc2)CCOCC1; system = male C57BL/6 mice; conditions = intraperitoneal, 50 mg/kg, 120 min; endpoint = brain concentration; value = 39 ng/g
Structure (SMILES) = C[C@@H]1NC(=O)[C@H](CCCCNC(=O)CO/N=C/C(=O)NCCCC[C@@H]2NC(=O)[C@@H](Cc3ccccc3)NC(=O)[C@H](CC(=O)O)NC(=O)CNC(=O)[C@H](CCCNC(=N)N)NC2=O)NC(=O)CNC(=O)[C@@H]2CCCN2C(=O)[C@H](CCCCNC(=O)CO/N=C/C(=O)NCCCC[C@@H]2NC(=O)[C@@H](Cc3ccccc3)NC(=O)[C@H](CC(=O)O)NC(=O)CNC(=O)[C@H](CCCNC(=N)N)NC2=O)NC(=O)[C@H](CCCCNC(=O)[C@H](CCCCN)NC(=O)[C@H](Cc2ccccc2)NC(=O)CNC(=O)CN2CCCNCCNCCCNCC2)NC(=O)[C@H](CCCCNC(=O)CO/N=C/C(=O)NCCCC[C@@H]2NC(=O)[C@@H](Cc3ccccc3)NC(=O)[C@H](CC(=O)O)NC(=O)CNC(=O)[C@H](CCCNC(=N)N)NC2=O)NC(=O)CNC(=O)[C@@H]2CCCN2C(=O)[C@H](CCCCNC(=O)CO/N=C/C(=O)NCCCC[C@@H]2NC(=O)[C@@H](Cc3ccccc3)NC(=O)[C@H](CC(=O)O)NC(=O)CNC(=O)[C@H](CCCNC(=N)N)NC2=O)NC1=O [copper-64 labelled]; assay = RP-HPLC; system = mouse serum; conditions = 24 h, 37 °C; endpoint = intact fraction; value = 91.8%
Structure (SMILES) = N#C/N=C1\SCCN1Cc1ccc(Cl)nc1; system = soil; conditions = 28 days, nominal 10; endpoint = concentration; value = 0.19 mg/kg dry soil
Structure (SMILES) = CCc1ccc(CC/C=C/c2ccc3c(c2)C(=O)CC3)cc1; system = Sprague-Dawley rat, male, blood; conditions = oral, 450 mg/kg/day, 14 days; endpoint = large unstained cells; value = 1.03%
Structure (SMILES) = CN1CCN(S(=O)(=O)c2cc([N+](=O)[O-])ccc2N(CCOS(C)(=O)=O)CCOS(C)(=O)=O)CC1; system = NOD/SCID mouse, naive, blood; conditions = intraperitoneal, 12.5 mg/kg, week 2; endpoint = hemoglobin; value = 138 g/L and 150 g/L and 102 g/L and 154 g/L

Some of these lines once more:
Structure (SMILES) = CN(C)C1(CNC(=O)c2ccc3c(c2)CCN3C(=O)c2ccccc2)CCOCC1; system = male C57BL/6 mice; conditions = intraperitoneal, 50 mg/kg, 120 min; endpoint = brain concentration; value = 39 ng/g
Structure (SMILES) = C[C@@H]1NC(=O)[C@H](CCCCNC(=O)CO/N=C/C(=O)NCCCC[C@@H]2NC(=O)[C@@H](Cc3ccccc3)NC(=O)[C@H](CC(=O)O)NC(=O)CNC(=O)[C@H](CCCNC(=N)N)NC2=O)NC(=O)CNC(=O)[C@@H]2CCCN2C(=O)[C@H](CCCCNC(=O)CO/N=C/C(=O)NCCCC[C@@H]2NC(=O)[C@@H](Cc3ccccc3)NC(=O)[C@H](CC(=O)O)NC(=O)CNC(=O)[C@H](CCCNC(=N)N)NC2=O)NC(=O)[C@H](CCCCNC(=O)[C@H](CCCCN)NC(=O)[C@H](Cc2ccccc2)NC(=O)CNC(=O)CN2CCCNCCNCCCNCC2)NC(=O)[C@H](CCCCNC(=O)CO/N=C/C(=O)NCCCC[C@@H]2NC(=O)[C@@H](Cc3ccccc3)NC(=O)[C@H](CC(=O)O)NC(=O)CNC(=O)[C@H](CCCNC(=N)N)NC2=O)NC(=O)CNC(=O)[C@@H]2CCCN2C(=O)[C@H](CCCCNC(=O)CO/N=C/C(=O)NCCCC[C@@H]2NC(=O)[C@@H](Cc3ccccc3)NC(=O)[C@H](CC(=O)O)NC(=O)CNC(=O)[C@H](CCCNC(=N)N)NC2=O)NC1=O [copper-64 labelled]; assay = RP-HPLC; system = mouse serum; conditions = 24 h, 37 °C; endpoint = intact fraction; value = 91.8%
